# Measurements gathered from unrelated publications.
# A part holds a random share of what one study measured.
# Chain of UniProt Q96RR4 (whole entry, looked up): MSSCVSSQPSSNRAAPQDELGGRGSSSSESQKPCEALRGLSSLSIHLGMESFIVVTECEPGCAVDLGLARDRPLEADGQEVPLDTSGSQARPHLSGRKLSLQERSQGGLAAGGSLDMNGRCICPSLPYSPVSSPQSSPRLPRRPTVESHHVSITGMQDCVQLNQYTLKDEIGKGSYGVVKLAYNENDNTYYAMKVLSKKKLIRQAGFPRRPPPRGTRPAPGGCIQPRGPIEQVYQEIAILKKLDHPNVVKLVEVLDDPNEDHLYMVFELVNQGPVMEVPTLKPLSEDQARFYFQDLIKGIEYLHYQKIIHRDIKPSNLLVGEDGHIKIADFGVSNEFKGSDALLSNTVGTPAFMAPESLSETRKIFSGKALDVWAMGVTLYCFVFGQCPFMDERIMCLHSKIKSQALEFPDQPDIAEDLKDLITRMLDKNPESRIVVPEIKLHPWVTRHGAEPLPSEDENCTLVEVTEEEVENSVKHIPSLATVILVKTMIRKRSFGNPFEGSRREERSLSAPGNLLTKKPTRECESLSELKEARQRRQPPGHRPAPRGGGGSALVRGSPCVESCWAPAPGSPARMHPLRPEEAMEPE
# Chain of UniProt Q9UL54 (whole entry, looked up): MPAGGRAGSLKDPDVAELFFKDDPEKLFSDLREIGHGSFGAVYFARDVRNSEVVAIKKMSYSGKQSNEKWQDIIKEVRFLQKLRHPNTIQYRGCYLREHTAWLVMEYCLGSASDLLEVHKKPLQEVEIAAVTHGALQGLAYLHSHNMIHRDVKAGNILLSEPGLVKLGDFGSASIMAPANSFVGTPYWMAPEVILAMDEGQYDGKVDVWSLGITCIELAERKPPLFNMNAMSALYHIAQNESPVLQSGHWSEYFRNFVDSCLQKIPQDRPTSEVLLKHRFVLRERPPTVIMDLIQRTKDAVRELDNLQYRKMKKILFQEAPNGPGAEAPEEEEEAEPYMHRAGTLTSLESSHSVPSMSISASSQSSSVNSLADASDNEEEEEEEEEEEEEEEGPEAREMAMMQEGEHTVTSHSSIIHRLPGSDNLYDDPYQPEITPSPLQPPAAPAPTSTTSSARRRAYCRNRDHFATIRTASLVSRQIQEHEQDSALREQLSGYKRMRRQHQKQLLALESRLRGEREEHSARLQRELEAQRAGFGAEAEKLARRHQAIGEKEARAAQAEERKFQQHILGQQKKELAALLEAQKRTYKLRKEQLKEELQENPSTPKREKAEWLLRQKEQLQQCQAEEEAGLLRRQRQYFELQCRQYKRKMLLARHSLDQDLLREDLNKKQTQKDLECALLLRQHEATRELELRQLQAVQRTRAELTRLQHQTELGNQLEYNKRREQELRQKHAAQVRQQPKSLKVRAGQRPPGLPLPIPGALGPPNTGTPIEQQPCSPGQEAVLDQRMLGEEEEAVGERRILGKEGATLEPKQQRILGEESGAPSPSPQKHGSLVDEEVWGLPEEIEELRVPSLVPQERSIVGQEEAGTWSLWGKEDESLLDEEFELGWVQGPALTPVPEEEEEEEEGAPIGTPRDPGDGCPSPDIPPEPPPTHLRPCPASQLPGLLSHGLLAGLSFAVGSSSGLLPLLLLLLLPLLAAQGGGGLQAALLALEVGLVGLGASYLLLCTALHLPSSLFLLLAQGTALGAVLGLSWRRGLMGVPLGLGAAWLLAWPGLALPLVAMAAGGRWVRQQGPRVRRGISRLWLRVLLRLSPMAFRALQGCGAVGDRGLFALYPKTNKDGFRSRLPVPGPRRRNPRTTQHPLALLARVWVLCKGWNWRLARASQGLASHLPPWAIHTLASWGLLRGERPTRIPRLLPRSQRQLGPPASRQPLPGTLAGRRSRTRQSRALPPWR
# Chain of UniProt Q8N4C8 (whole entry, looked up): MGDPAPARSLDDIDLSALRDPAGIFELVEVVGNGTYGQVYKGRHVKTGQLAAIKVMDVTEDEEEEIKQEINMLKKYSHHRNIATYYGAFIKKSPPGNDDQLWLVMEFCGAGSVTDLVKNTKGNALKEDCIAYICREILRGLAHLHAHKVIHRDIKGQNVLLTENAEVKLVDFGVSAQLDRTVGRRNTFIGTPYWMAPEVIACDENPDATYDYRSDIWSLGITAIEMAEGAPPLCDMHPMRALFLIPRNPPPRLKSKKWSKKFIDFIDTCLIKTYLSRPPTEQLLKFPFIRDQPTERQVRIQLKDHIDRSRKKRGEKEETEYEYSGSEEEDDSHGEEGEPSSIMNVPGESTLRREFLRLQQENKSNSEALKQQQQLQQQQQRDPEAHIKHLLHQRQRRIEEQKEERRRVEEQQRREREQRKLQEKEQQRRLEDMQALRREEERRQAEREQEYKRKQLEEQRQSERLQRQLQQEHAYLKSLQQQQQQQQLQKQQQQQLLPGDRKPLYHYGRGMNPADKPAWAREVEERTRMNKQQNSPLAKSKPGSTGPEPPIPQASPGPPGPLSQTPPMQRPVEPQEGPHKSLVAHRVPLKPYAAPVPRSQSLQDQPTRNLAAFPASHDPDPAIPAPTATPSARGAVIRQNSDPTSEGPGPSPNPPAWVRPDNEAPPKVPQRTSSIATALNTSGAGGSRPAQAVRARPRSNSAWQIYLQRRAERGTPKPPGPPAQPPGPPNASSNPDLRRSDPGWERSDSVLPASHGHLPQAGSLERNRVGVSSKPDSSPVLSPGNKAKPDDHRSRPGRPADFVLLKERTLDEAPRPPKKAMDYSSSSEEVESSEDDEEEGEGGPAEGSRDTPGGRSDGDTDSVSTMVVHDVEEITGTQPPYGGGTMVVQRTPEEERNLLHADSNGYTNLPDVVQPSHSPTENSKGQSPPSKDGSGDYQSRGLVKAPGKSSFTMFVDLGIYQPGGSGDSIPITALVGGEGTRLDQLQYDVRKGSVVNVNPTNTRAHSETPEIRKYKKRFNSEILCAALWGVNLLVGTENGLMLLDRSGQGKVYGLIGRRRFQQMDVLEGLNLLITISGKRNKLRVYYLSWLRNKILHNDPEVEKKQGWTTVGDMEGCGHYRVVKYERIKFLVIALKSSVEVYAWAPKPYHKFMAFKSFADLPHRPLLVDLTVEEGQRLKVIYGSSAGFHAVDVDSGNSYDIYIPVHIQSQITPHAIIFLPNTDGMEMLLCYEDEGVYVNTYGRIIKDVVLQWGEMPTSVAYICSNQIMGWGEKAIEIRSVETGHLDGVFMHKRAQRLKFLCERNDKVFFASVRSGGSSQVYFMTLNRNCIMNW

# Study 1 — Structure (SMILES): CCC(=O)Nc1ccc2ncnc(Nc3cccc(Br)c3)c2c1; observed: enzyme activity; mode: inhibitor; tested at: 0.5 µM; reference: control
target,remaining activity [%]
"IKBKB (Homo sapiens, UniProt O14920)",94.9
"MAP3K3 (Homo sapiens, UniProt Q99759)",89.8
"CAMKK2 (Homo sapiens, UniProt Q96RR4)",84.3
"STK10 (Homo sapiens, UniProt O94804)",68.7
"PRKCA (Homo sapiens, UniProt P17252)",96.5
"TGFBR2 (Homo sapiens, UniProt P37173)",116
"PRKACA (Homo sapiens, UniProt P17612)",94.6
"MAPK9 (Homo sapiens, UniProt P45984)",78.3
"STK39 (Homo sapiens, UniProt Q9UEW8)",96.1

# Study 2 — technique: universal PBM; form: double-stranded DNA, one strand shown; sample: in vitro; tested at: 600 nM; reading: higher = stronger binding
# Target: Sal-like protein 4, full length isoform A (SALL4, Homo sapiens, UniProt Q9UJQ4, residues 1-1053)
# Chain of UniProt Q9UJQ4 (whole entry, looked up): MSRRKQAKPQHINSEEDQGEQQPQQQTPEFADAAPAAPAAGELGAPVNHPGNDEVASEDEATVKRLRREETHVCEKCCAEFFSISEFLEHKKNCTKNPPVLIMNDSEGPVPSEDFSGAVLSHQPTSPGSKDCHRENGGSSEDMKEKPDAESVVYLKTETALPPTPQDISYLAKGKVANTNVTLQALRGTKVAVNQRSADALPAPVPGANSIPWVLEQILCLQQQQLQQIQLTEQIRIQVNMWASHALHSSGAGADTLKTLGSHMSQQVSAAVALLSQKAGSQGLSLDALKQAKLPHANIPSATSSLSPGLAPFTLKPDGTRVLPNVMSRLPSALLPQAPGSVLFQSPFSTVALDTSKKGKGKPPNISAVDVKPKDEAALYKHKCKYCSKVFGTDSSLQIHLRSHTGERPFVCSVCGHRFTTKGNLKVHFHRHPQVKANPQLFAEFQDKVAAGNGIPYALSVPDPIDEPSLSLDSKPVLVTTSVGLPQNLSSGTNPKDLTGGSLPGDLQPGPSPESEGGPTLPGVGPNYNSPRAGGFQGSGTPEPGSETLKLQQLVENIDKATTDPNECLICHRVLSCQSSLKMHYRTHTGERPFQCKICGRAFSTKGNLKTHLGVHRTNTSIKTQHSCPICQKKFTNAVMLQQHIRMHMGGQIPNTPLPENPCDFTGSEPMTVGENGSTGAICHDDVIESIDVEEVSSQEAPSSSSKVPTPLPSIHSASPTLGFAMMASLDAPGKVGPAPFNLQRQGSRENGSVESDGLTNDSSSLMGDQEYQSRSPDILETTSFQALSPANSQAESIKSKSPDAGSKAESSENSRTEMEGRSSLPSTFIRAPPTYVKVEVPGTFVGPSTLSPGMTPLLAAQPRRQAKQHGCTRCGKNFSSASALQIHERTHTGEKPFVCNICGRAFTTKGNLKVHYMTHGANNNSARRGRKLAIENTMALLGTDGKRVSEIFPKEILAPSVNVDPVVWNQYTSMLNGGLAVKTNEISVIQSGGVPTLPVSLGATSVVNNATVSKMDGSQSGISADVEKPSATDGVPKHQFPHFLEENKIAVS
# Setting: 8-mer, flanks averaged, mean of replicates
Strand,E-score
CACAGGGC,-0.237
GGGAACTA,-0.0781
CAAAGAGG,-0.204
AACGACGT,0.0736
AGTATCAA,0.181
CGTGAAGC,-0.247
AGATAACC,0.0624
AAACTGGC,-0.24

# Study 3 — observed: cell-free assay; technique: competition with immobilised ligand; tested at: 1 µM
# Compound: C[C@H](c1ccc(F)cc1)N(Cc1cccc(C(=O)O)c1)C(=O)c1cnc2ccccc2c1
target,remaining binding
"NTRK1 (Homo sapiens, UniProt P04629)",100%
"FGFR3 (Homo sapiens, UniProt P22607, G697C)",100%
"MINK1 (Homo sapiens, UniProt Q8N4C8)",100%
"Ribosomal protein S6 kinase alpha-1, C-terminal kinase domain (RPS6KA1, Homo sapiens, UniProt Q15418)",100%
"Ribosomal protein S6 kinase alpha-5, N-terminal kinase domain (RPS6KA5, Homo sapiens, UniProt O75582)",98%
"PAK4 (Homo sapiens, UniProt O96013)",100%
"TAOK2 (Homo sapiens, UniProt Q9UL54)",100%
"MAP2K3 (Homo sapiens, UniProt P46734)",91%
"HUNK (Homo sapiens, UniProt P57058)",100%
"AKT3 (Homo sapiens, UniProt Q9Y243)",100%
"MTOR (Homo sapiens, UniProt P42345)",93%
"MAPK13 (Homo sapiens, UniProt O15264)",95%
"MAP3K2 (Homo sapiens, UniProt Q9Y2U5)",100%

# Study 4 — technique: RNA Bind-n-Seq; form: RNA; sample: in vitro; tested at: 20 nM; setting: 6-mer, flanks averaged, single round; added: 150 mM LiCl; reference: input library; reading: higher = stronger binding
# Target: TAR DNA-binding protein 43, full length, His tag (TARDBP, Homo sapiens, UniProt Q13148, residues 1-414)
Strand,6-mer enrichment (R)
AAGUUC,0.838
AGCAAG,0.903
GUGGAC,1.1
AAUUUG,1.11
UUGAAA,0.928
GUCAAU,0.926
UAUGGU,1.21
UCAGUA,0.885

# For quick reference, copied from above (study 2):
Strand,E-score
AACGACGT,0.0736
AAACTGGC,-0.24
CAAAGAGG,-0.204
AGTATCAA,0.181
CACAGGGC,-0.237
